Experimental data from different studies.
Lines come from different studies, so protocols differ.
Technique: steady-state kinetics
B1: Pck1 (Rattus norvegicus, UniProt P07379); chain MPPQLHNGLDFSAKVIQGSLDSLPQEVRKFVEGNAQLCQPEYIHICDGSEEEYGRLLAHMQEEGVIRKLKKYDNCWLALTDPRDVARIESKTVIITQEQRDTVPIPKSGQSQLGRWMSEEDFEKAFNARFPGCMKGRTMYVIPFSMGPLGSPLAKIGIELTDSPYVVASMRIMTRMGTSVLEALGDGEFIKCLHSVGCPLPLKKPLVNNWACNPELTLIAHLPDRREIISFGSGYGGNSLLGKKCFALRIASRLAKEEGWLAEHMLILGITNPEGKKKYLAAAFPSACGKTNLAMMNPTLPGWKVECVGDDIAWMKFDAQGNLRAINPENGFFGVAPGTSVKTNPNAIKTIQKNTIFTNVAETSDGGVYWEGIDEPLAPGVTITSWKNKEWRPQDEEPCAHPNSRFCTPASQCPIIDPAWESPEGVPIEGIIFGGRRPAGVPLVYEALSWQHGVFVGAAMRSEATAAAEHKGKVIMHDPFAMRPFFGYNFGKYLAHWLSMAHRPAAKLPKIFHVNWFRKDKNGKFLWPGFGENSRVLEWMFGRIEGEDSAKLTPIGYVPKEDALNLKGLGDVNVEELFGISKEFWEKEVEEIDKYLEDQVNADLPYEIERELRALKQRISQM
B2: BaiA1 (Clostridium scindens, UniProt P07914); chain MKLVQDKITIITGGTRGIGFAAAKLFIENGAKVSIFGETQEEVDTALAQLKELYPEEEVLGFAPDLTSRDAVMAAVGTVAQKYGRLDVMINNAGITMNSVFSRVSEEDFKNIMDINVNGVFNGAWSAYQCMKDAKQGVIINTASVTGIYGSLSGIGYPTSKAGVIGLTHGLGREIIRKNIRVVGVAPGVVDTDMTKGLPPEILEDYLKTLPMKRMLKPEEIANVYLFLASDLASGITATTISVDGAYRP
B3: YdjH (Escherichia coli, UniProt P77493); chain MDNLDVICIGAAIVDIPLQPVSKNIFDVDSYPLERIAMTTGGDAINEATIISRLGHRTALMSRIGKDAAGQFILDHCRKENIDIQSLKQDVSIDTSINVGLVTEDGERTFVTNRNGSLWKLNIDDVDFARFSQAKLLSLASIFNSPLLDGKALTEIFTQAKARQMIICADMIKPRLNETLDDICEALSYVDYLFPNFAEAKLLTGKETLDEIADCFLACGVKTVVIKTGKDGCFIKRGDMTMKVPAVAGITAIDTIGAGDNFASGFIAALLEGKNLRECARFANATAAISVLSVGATTGVKNRKLVEQLLEEYEG
B4: UGT1A9 (Homo sapiens, UniProt O60656); chain GKLLVVPMDGSHWFTMRSVVEKLILRGHEVVVVMPEVSWQLGRSLNCTVKTYSTSYTLEDLDREFKAFAHAQWKAQVRSIYSLLMGSYNDIFDLFFSNCRSLFKDKKLVEYLKESSFDAVFLDPFDNCGLIVAKYFSLPSVVFARGILCHYLEEGAQCPAPLSYVPRILLGFSDAMTFKERVRNHIMHLEEHLLCHRFFKNALEIASEILQTPVTEYDLYSHTSIWLLRTDFVLDYPKPVMPNMIFIGGINCHQGKPLPMEFEAYINASGEHGIVVFSLGSMVSEIPEKKAMAIADALGKIPQTVLWRYTGTRPSNLANNTILVKWLPQNDLLGHPMTRAFITHAGSHGVYESICNGVPMVMMPLFGDQMDNAKRMETKGAGVTLNVLEMTSEDLENALKAVINDKSYKENIMRLSSLHKDRPVEPLDLAVFWVEFVMRHKGAPHLRPAAHDLTWYQYHSLDVIGFLLAVVLTVAFITFKCCAYGYRKCLGKKGRVKKAHKSKTH
B5: carbamoyl phosphate synthetase large subunit G575K (Escherichia coli, UniProt P00968); chain PKRTDIKSILILGAGPIVIGQACEFDYSGAQACKALREEGYRVILVNSNPATIMTDPEMADATYIEPIHWEVVRKIIEKERPDAVLPTMGGQTALNCALELERQGVLEEFGVTMIGATADAIDKAEDRRRFDVAMKKIGLETARSGIAHTMEEALAVAADVGFPCIIRPSFTMGGSGGGIAYNREEFEEICARGLDLSPTKELLIDESLIGWKEYEMEVVRDKNDNCIIVCSIENFDAMGIHTGDSITVAPAQTLTDKEYQIMRNASMAVLREIGVETGGSNVQFAVNPKNGRLIVIEMNPRVSRSSALASKATGFPIAKVAAKLAVGYTLDELMNDITGGRTPASFEPSIDYVVTKIPRFNFEKFAGANDRLTTQMKSVGEVMAIGRTQQESLQKALRGLEVGATGFDPKVSLDDPEALTKIRRELKDAGADRIWYIADAFRAGLSVDGVFNLTNIDRWFLVQIEELVRLEEKVAEVGITGLNADFLRQLKRKGFADARLAKLAGVREAEIRKLRDQYDLHPVYKRVDTCAAEFATDTAYMYSTYEEECEANPSTDREKIMVLGGGPNRIGQKIEFDYCCVHASLALREDGYETIMVNCNPETVSTDYDTSDRLYFEPVTLEDVLEIVRIEKPKGVIVQYGGQTPLKLARALEAAGVPVIGTSPDAIDRAEDRERFQHAVERLKLKQPANATVTAIEMAVEKAKEIGYPLVVRPSYVLGGRAMEIVYDEADLRRYFQTAVSVSNDAPVLLDHFLDDAVEVDVDAICDGEMVLIGGIMEHIEQAGVHSGDSACSLPAYTLSQEIQDVMRQQVQKLAFELQVRGLMNVQFAVKNNEVYLIEVNPRAARTVPFVSKATGVPLAKVAARVMAGKSLAEQGVTKEVIPPYYSVKEVVLPFNKFPGVDPLLGPEMRSTGEVMGVGRTFAEAFAKAQLGSNSTMKKHGRALLSVREGDKERVVDLAAKLLKQGFELDATHGTAIVLGEAGINPRLVNKVHEGRPHIQDRIKNGEYTYIINTTSGRRAIEDSRVIRRSALQYKVHYDTTLNGGFATAMALNADATEKVISVQEMHAQIK
B6: LYS1 C205S/D319A (Saccharomyces cerevisiae, UniProt P38998); chain MAAVTLHLRAETKPLEARAALTPTTVKKLIAKGFKIYVEDSPQSTFNINEYRQAGAIIVPAGSWKTAPRDRIIIGLKEMPETDTFPLVHEHIQFAHCYKDQAGWQNVLMRFIKGHGTLYDLEFLENDQGRRVAAFGFYAGFAGAALGVRDWAFKQTHSDDEDLPAVSPYPNEKALVKDVTKDYKEALATGARKPTVLIIGALGRSGSGAIDLLHKVGIPDANILKWDIKETSRGGPFDEIPQADIFINCIYLSKPIAPFTNMEKLNNPNRRLRTVVDVSADTTNPHNPIPIYTVATVFNKPTVLVPTTAGPKLSVISIAHLPSLLPREASEFFSHDLLPSLELLPQRKTAPVWVRAKKLFDRHCARVKRSSRL
B7: enzyme (Arabidopsis thaliana, UniProt Q949Q0); chain ISGPPDIINTNRDQRKVVRIAWEKLVRWSRSLRAKAKTDVLERTRKVVVLGGGSFGTAMAAHVARRKEGLEVNMLVRDSFVCQSINENHHNCKYFPEHKLPENVIATTDAKAALLDADYCLHAVPVQFSSSFLEGIADYVDPGLPFISLSKGLELNTLRMMSQIIPIALKNPRQPFVALSGPSFALELMNNLPTAMVVASKDKKLANAVQQLLASSYLRINTSSDVTGVEIAGALKNVLAIAAGIVDGMNLGNNSMAALVSQGCSEIRWLATKMGAKPTTITGLSGTGDIMLTCFVNLSRNRTVGVRLGSGETLDDILTSMNQVAEGVATAGAVIALAQKYNVKLPVLTAVAKIIDNELTPTKAVLELMNLPQIEEV
B8: POLH (Homo sapiens, UniProt Q9Y253); chain MATGQDRVVALVDMDCFFVQVEQRQNPHLRNKPCAVVQYKSWKGGGIIAVSYEARAFGVTRSMWADDAKKLCPDLLLAQVRESRGKANLTKYREASVEVMEIMSRFAVIERASIDEAYVDLTSAVQERLQKLQGQPISADLLPSTYIEGLPQGPTTAEETVQKEGMRKQGLFQWLDSLQIDNLTSPDLQLTVGAVIVEEMRAAIERETGFQCSAGISHNKVLAKLACGLNKPNRQTLVSHGSVPQLFSQMPIRKIRSLGGKLGASVIEILGIEYMGELTQFTESQLQSHFGEKNGSWLYAMCRGIEHDPVKPRQLPKTIGCSKNFPGKTALATREQVQWWLLQLAQELEERLTKDRNDNDRVATQLVVSIRVQGDKRLSSLRRCCALTRYDAHKMSHDAFTVIKNCNTSGIQTEWSPPLTMLFLCATKFSASAPSSSTDITSFLSSDPSSLPKVPVTSSEAKTQGSGPAVTATKKATTSLESFFQKAAERQKVKEASLSSLTAPTQAPMSNSPSKPSLPFQTSQSTGTEPFFKQKSLLLKQKQLNNSSVSSPQQNPWSNCKALPNSLPTEYPGCVPVCEGVSKLEESSKATPAEMDLAHNSQSMHASSASKSVLEVTQKATPNPSLLAAEDQVPCEKCGSLVPVWDMPEHMDYHFALELQKSFLQPHSSNPQVVSAVSHQGKRNPKSPLACTNKRPRPEGMQTLESFFKPLTH
Sequence of UniProt P09950 (whole entry, unmodified, looked up): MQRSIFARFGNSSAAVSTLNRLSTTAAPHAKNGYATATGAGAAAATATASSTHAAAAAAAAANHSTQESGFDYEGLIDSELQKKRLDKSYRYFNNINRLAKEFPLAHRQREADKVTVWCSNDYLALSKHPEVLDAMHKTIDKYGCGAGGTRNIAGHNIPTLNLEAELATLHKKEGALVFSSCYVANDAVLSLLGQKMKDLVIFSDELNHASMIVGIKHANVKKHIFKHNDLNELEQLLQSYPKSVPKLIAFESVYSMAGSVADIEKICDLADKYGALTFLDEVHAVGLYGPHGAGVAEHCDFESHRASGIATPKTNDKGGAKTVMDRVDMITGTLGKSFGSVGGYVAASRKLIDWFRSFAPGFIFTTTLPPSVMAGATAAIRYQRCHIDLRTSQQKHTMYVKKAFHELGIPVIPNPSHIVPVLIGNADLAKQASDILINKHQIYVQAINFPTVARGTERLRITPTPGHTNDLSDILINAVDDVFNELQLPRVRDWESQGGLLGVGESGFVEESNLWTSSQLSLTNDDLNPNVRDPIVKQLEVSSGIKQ
Sequence of UniProt P23262 (whole entry, looked up): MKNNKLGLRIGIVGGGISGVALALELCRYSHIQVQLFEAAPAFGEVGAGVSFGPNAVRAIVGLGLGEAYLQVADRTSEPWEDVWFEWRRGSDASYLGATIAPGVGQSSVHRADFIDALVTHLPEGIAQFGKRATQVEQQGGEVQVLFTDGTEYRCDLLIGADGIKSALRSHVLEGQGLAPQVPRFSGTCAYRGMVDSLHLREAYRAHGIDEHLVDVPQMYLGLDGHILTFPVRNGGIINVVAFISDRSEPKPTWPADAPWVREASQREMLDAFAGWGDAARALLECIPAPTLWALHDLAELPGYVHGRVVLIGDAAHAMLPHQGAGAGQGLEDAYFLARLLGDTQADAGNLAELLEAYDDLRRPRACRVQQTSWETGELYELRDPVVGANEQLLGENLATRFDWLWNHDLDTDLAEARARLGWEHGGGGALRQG
Sequence of UniProt Q92UV7 (whole entry, looked up): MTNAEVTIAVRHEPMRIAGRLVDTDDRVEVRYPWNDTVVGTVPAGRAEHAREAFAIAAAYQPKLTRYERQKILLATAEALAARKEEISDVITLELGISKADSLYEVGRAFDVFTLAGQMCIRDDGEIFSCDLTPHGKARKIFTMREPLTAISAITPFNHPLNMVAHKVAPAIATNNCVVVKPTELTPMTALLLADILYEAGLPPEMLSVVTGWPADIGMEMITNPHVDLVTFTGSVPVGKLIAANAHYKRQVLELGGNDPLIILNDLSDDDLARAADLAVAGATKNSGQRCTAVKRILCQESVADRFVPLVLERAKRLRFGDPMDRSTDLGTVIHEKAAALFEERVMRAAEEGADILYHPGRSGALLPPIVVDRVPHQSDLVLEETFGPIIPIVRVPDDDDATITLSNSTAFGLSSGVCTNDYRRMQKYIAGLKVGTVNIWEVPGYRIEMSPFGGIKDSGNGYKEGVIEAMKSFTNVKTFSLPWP
Sequence of UniProt P16152 (whole entry, looked up): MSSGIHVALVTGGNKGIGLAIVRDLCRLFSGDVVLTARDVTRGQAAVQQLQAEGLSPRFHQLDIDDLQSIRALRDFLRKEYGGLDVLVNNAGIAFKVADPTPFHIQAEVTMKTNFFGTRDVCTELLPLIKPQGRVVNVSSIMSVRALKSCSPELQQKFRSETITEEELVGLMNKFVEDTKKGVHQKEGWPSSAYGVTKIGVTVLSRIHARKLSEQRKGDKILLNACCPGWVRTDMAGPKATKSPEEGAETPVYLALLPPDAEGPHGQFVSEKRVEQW

B1 (Pck1)  Km (O=C(O)CC(=O)C(=O)O; pH 7.5, 25 °C, added: OAA, GTP): 52 µM
B2 (BaiA1)  Km (NC(=O)c1ccc[n+]([C@@H]2O[C@H](COP(=O)(O)OP(=O)(O)OC[C@H]3O[C@@H](n4cnc5c(N)ncnc54)[C@H](O)[C@@H]3O)[C@@H](O)[C@H]2O)c1; pH 8.7, 37 °C, cofactor varied, added: glycocholic acid 1.4 mM): 17 µM
CBR1 (Homo sapiens, UniProt P16152)  Km (C=C1C[C@@H]2[C@H](CC[C@]3(C)C(=O)CC[C@@H]23)[C@@]2(C)C=CC(=O)C=C12; 37 °C): 265 µM
B3 (YdjH)  Km (O=C(CO)[C@@H](O)[C@H](O)[C@H](O)[C@@H](O)CO; pH 7.4, 30 °C, KCl 100 mM, added: ATP 2.0 mM, MgCl2 5.0 mM): 14500 µM
B4 (UGT1A9)  Km (O=c1oc2cc(O)ccc2c(-c2ccccc2)c1-c1ccccc1; pH 7.4, 37 °C): 3.37 µM
pgmB H20N (Lactococcus lactis) (sequence not shown)  Km (O=P(O)(O)OC[C@H]1O[C@@H](OP(=O)(O)O)[C@H](O)[C@@H](O)[C@@H]1O; pH 7, 25 °C): 1.49 µM
HEM1 (Saccharomyces cerevisiae, UniProt P09950)  Km (CC(C)(COP(=O)(O)OP(=O)(O)OC[C@H]1O[C@@H](n2cnc3c(N)ncnc32)[C@H](O)[C@@H]1OP(=O)(O)O)[C@@H](O)C(=O)NCCC(=O)NCCSC(=O)CCC(=O)O; pH 7.4, 30 °C): 33 µM
B5  Km (Nc1ncnc2c1ncn2[C@@H]1O[C@H](COP(=O)(O)OP(=O)(O)OP(=O)(O)O)[C@@H](O)[C@H]1O; pH 7.6, KCl 100 mM, added: glutamine 10 mM, ornithine 10 mM): 70 µM
B6 (LYS1 C205S/D319A)  Km (O=C(O)CCC(=O)C(=O)O; pH 7.2, 25 °C, added: NADH and Lys): 210 µM
enzyme (Sinorhizobium meliloti, UniProt Q92UV7)  Km (O=CCP(=O)(O)O; pH 7.5, 30 °C): 3.2 µM
nahG (Pseudomonas putida, UniProt P23262)  Km (Cc1cc2nc3c(=O)[nH]c(=O)nc-3n(C[C@H](O)[C@H](O)[C@H](O)COP(=O)(O)O)c2cc1C; pH 8.5, 25 °C, no AMP, apparent, cofactor varied, added: NADH 200 µM, salicylate 150 µM): 2.4 µM
B7 (enzyme)  Km (O=C(CO)COP(=O)(O)O; pH 7.2, 30 °C, apparent): 0.2 µM
B8 (POLH)  Km (Nc1nc2c(ncn2[C@H]2C[C@H](O)[C@@H](COP(=O)(O)OP(=O)(O)OP(=O)(O)O)O2)c(=O)[nH]1; 30 °C): 24.7 µM
